# Assay results collected from several papers.
# Compare with care: the assays were run in different laboratories. Values joined by “and” are separate records of one study, mostly repeats; a detail may differ. ± gives the spread as reported.
# T1: riboswitch RNA yjdF aptamer (Bacillus subtilis); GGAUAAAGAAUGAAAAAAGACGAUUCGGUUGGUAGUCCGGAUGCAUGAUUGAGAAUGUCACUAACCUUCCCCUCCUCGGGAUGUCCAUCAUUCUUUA
# Chain of UniProt Q16774 (whole entry, unmodified, looked up): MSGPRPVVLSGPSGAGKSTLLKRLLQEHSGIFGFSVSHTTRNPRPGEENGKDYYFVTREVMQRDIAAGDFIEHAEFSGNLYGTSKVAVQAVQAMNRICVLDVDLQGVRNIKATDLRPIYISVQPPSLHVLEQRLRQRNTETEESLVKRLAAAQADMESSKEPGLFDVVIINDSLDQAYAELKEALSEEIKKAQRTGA
# Chain of UniProt P11388 (whole entry, looked up): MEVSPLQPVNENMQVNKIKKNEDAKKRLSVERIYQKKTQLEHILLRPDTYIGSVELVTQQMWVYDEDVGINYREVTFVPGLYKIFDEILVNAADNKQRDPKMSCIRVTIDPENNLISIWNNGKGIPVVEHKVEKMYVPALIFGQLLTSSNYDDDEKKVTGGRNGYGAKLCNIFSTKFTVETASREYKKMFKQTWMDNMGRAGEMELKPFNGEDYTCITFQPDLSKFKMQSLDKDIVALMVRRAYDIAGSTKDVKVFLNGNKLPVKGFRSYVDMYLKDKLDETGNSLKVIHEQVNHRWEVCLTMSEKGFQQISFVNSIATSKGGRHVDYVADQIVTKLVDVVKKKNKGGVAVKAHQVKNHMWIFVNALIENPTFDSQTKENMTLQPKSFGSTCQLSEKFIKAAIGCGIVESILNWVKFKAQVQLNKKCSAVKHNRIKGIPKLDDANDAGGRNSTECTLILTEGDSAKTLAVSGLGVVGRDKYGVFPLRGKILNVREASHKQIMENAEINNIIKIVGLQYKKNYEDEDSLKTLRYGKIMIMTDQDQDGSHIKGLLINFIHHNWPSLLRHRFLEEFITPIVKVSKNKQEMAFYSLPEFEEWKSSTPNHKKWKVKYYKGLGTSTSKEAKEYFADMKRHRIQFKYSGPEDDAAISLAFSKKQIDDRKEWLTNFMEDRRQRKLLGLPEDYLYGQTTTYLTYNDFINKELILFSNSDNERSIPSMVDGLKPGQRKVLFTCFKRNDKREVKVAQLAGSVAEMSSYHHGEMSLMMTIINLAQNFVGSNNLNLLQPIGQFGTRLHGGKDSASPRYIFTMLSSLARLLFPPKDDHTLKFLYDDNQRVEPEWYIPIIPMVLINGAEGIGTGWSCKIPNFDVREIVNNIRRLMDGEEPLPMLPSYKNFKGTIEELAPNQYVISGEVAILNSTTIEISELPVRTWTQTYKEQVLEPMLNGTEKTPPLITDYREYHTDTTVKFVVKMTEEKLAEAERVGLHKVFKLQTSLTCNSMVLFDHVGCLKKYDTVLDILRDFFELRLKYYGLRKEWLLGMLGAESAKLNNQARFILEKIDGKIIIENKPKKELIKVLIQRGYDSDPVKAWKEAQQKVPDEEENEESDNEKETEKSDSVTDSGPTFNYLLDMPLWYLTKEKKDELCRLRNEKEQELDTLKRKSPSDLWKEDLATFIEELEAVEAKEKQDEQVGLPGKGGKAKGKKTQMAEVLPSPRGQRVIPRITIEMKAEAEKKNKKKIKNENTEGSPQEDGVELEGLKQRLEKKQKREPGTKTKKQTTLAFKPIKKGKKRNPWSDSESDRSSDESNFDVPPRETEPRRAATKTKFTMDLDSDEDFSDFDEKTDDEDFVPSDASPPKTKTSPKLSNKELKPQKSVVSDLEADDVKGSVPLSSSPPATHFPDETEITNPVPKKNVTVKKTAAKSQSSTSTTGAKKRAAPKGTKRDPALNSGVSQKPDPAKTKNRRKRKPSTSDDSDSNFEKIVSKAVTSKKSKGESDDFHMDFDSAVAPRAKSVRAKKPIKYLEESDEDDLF
# Chain of UniProt Q9UQD0 (whole entry, looked up): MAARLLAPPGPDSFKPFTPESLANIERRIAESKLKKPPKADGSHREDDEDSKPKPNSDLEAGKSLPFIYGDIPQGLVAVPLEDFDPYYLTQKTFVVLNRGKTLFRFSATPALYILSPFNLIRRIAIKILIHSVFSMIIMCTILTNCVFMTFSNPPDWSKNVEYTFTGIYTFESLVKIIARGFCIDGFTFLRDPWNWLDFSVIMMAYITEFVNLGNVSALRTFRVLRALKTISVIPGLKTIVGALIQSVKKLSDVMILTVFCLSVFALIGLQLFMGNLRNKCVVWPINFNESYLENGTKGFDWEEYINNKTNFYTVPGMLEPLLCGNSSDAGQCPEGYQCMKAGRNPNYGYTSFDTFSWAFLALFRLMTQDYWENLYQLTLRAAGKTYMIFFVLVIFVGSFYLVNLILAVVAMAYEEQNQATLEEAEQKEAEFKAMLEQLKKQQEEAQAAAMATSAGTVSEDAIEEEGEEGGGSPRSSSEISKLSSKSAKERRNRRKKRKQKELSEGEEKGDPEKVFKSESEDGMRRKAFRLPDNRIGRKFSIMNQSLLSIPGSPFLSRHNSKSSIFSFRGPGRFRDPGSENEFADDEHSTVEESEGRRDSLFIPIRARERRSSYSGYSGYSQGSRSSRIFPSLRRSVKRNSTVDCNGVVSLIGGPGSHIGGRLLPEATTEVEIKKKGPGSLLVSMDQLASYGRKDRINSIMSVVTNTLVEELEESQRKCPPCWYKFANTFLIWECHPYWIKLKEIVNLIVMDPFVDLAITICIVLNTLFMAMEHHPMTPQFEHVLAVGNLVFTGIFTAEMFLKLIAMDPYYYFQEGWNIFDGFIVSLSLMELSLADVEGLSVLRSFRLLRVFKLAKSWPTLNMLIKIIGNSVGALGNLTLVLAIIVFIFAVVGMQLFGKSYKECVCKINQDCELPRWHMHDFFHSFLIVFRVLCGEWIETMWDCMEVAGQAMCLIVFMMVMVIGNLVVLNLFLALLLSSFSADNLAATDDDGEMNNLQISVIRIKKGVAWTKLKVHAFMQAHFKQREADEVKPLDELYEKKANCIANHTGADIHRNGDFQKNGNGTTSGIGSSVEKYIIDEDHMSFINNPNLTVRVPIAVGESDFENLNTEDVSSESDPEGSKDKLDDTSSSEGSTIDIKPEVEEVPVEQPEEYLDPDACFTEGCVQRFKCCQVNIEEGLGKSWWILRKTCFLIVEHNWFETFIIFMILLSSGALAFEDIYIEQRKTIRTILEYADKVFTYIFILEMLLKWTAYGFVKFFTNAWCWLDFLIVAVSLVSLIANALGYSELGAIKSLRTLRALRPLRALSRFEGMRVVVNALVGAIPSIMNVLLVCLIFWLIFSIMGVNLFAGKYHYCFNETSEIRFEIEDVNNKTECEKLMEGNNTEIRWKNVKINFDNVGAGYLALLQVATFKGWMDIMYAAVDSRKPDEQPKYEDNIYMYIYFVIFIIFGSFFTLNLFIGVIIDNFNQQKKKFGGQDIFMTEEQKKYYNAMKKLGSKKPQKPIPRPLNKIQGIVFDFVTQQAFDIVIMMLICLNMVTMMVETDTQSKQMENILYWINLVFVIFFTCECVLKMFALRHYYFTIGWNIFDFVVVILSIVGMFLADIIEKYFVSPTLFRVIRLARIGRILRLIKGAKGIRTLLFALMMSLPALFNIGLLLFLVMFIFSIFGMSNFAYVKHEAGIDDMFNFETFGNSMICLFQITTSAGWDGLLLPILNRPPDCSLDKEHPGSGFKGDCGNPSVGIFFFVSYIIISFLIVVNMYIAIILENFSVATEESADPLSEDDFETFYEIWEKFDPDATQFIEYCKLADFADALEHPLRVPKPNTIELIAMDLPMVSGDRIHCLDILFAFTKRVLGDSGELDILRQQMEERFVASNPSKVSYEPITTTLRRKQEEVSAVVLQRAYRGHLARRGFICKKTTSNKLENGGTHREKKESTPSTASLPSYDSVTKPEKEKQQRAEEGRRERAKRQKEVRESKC
# Chain of UniProt P25440 (whole entry, unmodified, looked up): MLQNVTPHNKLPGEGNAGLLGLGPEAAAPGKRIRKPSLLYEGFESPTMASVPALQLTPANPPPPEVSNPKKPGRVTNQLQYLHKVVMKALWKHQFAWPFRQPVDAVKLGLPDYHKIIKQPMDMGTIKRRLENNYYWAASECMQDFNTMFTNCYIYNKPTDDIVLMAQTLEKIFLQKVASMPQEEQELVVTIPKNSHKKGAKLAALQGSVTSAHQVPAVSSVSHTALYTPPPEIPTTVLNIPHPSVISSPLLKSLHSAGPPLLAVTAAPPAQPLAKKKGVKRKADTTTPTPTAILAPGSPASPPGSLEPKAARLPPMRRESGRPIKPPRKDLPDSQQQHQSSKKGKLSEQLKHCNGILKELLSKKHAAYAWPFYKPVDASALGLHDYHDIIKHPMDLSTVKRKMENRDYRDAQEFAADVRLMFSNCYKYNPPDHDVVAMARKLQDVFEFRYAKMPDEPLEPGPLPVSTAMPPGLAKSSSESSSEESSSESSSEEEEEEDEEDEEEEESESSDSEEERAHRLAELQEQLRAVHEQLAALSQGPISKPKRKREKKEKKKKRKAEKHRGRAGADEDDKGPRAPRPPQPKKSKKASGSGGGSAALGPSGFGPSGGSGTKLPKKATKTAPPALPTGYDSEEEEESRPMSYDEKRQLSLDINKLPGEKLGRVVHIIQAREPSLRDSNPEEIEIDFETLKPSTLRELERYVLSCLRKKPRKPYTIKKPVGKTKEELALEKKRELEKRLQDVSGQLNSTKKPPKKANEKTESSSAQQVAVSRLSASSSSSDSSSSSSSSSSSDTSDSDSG
# Chain of UniProt Q96NY8 (whole entry, looked up): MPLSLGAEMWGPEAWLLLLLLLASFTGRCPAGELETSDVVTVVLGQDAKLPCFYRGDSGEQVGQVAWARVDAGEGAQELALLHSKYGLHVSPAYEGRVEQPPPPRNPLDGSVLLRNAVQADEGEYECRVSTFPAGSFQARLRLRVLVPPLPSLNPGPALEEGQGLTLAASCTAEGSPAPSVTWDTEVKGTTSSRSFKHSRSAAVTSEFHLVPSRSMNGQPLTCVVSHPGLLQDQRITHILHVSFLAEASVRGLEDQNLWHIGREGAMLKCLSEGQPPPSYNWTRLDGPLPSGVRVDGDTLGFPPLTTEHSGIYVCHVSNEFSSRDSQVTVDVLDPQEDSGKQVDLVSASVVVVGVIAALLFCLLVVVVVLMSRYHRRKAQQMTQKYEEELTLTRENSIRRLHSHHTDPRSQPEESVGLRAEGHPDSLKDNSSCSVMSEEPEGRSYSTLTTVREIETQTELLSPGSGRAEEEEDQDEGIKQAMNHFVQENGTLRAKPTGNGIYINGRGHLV
SMILES,target,test,test system,conditions,scale,quantity,result
O=[N+]([O-])c1ccc(S(=O)(=O)Nc2nnc(Cc3ccc(Cl)c(Cl)c3)s2)cc1,"Glutathione hydrolase 1 proenzyme, without transmembrane domain (Homo sapiens, UniProt P19440)","GSH hydrolysis, inhibitor",,"37 °C, together with: GSH 5 to 20 µM",,Kii,859 ± 83 µM
N#Cc1ccc2c(-c3ccncc3)c(-c3ccc(F)cc3)nn2c1,"Mitogen-activated protein kinase HOG1 (HOG1, Candida albicans, UniProt Q92207)",MIB/MS competition binding,Candida albicans cell lysate,10 µM,"relative to: DMSO, lower = stronger binding",log2 fold change,-2.92
CCOC(=O)c1c(NC(=O)CNC(C)C)sc2c1CCCCC2,"Sodium channel protein type 8 subunit alpha (SCN8A, Homo sapiens, UniProt Q9UQD0)","sodium current, whole-cell voltage clamp",HEK cells,20 µM,,fast inactivation time constant,1 ± 0.1 ms
COc1nc(-c2cccc(-c3ccccc3)c2C)ccc1CNCCNC(=O)CCCCCCCCCCC(=O)N1CCN(CCNC(=O)c2cc3c(=O)n4cccc(C)c4nc3n(CCc3cccs3)c2=N)CC1,"SPOP/CD274 (Homo sapiens, UniProt O43791+Q9NZQ7)",biolayer interferometry,,"concentration not given, ternary complex",relative to: absence of compound,SPOP-PD-L1 interaction,increased
C=CC(=O)N1CCC(COCC(=O)N2CCN(c3nc(-c4cnc(N)nc4C(F)F)nc(N4CCOC[C@@H]4C)n3)CC2)CC1,"Misshapen-like kinase 1 (MINK1, Homo sapiens, UniProt Q8N4C8)",KINOMEscan,,1 µM,,remaining binding,100%
Oc1ccccc1-c1n[nH]cc1-c1ccnc2ccccc12,"Serine/threonine-protein kinase CST20 (CST20, Candida albicans, UniProt P0CY24)","kinase binding, MIB/MS competition",Candida albicans lysate,1 µM,"relative to: DMSO, negative = stronger binding",log2 fold change,0.33
CCCc1ccc(S(=O)(=O)Oc2ccccc2NC(=O)c2ccc3ncccc3c2)cc1,"P2X purinoceptor 2 (P2RX2, Homo sapiens, UniProt Q9UBL9)",calcium mobilization,MCF7 stably transfected,"100 µM, together with: ATP 100 µM",,fluorescence increase,77.5 ± 1.45%
N=C(N)NCCC[C@H](N)C(=O)O,"uncharacterized protein (Pelagibacter ubique, UniProt Q4FLC2)","binding, isothermal titration calorimetry",Candidatus Pelagibacter ubique,"two-sets-of-sites model, site 1, together with: E108A mutant competing protein",,Ka,2.71e+10 M⁻¹ and 5.28e+10 M⁻¹ and 3.09e+10 M⁻¹
C=CC(=O)N1CCC(C(=O)NCC(=O)N2CCN(c3nc(-c4cnc(N)nc4C(F)F)nc(N4CCOCC4)n3)CC2)CC1,"Non-receptor tyrosine-protein kinase TYK2, JH1 domain (TYK2, Homo sapiens, UniProt P29597)",KINOMEscan,,1 µM,,remaining binding,92%
O=C(O)c1ccc(Nc2ncc3c(n2)-c2ccc(Cl)cc2C(c2c(F)cccc2F)=NC3)cc1,PKG1α(h),kinase activity,,1 µM,,remaining activity,103%
Nc1nc2c(ncn2[C@@H]2O[C@H](COP(=O)(O)O)[C@@H](O)[C@H]2O)c(=O)[nH]1,"GUK1 (Homo sapiens, UniProt Q16774, T83A)","enzyme activity, NADH-coupled",,250 µM,,reaction rate,21 s⁻¹ and 21.9 s⁻¹ and 23.6 s⁻¹
CC[C@H](C)[C@@H]1NC(=O)[C@H](C)NC(=O)[C@H]([C@@H](C)CC)NC(=O)[C@H](CCC(N)=O)NC(=O)[C@H](C)NC(=O)[C@H](CCCNC(=N)N)NC(=O)[C@H](C(C)C)NC(=O)[C@H](CC(C)C)NC(=O)[C@H](CCC(=O)O)NC(=O)[C@H](CCCNC(=N)N)NC(=O)CNC(=O)[C@@H](NC(=O)[C@H](CC(C)C)NC(=O)[C@H](CCCCN)NC(=O)[C@@H](NC(=O)[C@@H](NC(=O)[C@H](CCC(=O)O)NC(=O)[C@H](CCC(=O)O)NC(=O)[C@H](CCSC)NC(=O)[C@H](Cc2c[nH]c3ccccc23)NC(=O)[C@H](CO)NC(=O)[C@@H](N)CC(=O)O)C(C)C)[C@@H](C)CC)CSSC[C@@H]2NC(=O)[C@@H](NC(=O)[C@H](CCCCN)NC(=O)[C@H](CC(N)=O)NC(=O)[C@H](C)NC(=O)[C@H](CC(C)C)NC(=O)[C@H](C)NC(=O)[C@H](CO)NC(=O)[C@H](Cc3ccc(O)cc3)NC(=O)[C@H](CC(C)C)NC(=O)[C@H](CCC(N)=O)NC(=O)c3ccc(-c4c5ccc(=[N+](C)C)cc-5oc5cc(N(C)C)ccc45)c(C(=O)[O-])c3)CSSC[C@H](NC(=O)CNC(=O)[C@H](C(C)C)NC(=O)[C@H](Cc3c[nH]cn3)NC2=O)C(=O)N[C@@H]([C@@H](C)O)C(=O)N[C@@H](CCCCN)C(=O)N[C@@H](CCCNC(=N)N)C(=O)N[C@@H](CO)C(=O)N[C@@H](CC(C)C)C(=O)N[C@@H](C)C(=O)N[C@@H](CCCNC(=N)N)C(=O)N[C@@H](Cc2ccccc2)C(=O)N[C@H](C(=O)O)CSSC[C@@H](C(=O)NCC(=O)N[C@@H](CCSC)C(=O)N[C@@H](CO)C(=O)N[C@H](C(=O)N[C@@H](Cc2c[nH]c3ccccc23)C(=O)N[C@@H](CO)C(=O)O)[C@@H](C)O)NC1=O,"Relaxin receptor 1 (RXFP1, Homo sapiens, UniProt Q9HBX9, F76A/Y80A)","binding, NanoBRET",,together with: relaxin 10 nM,,dissociation plateau,14.2%
CC(=O)N[C@H](C(=O)N1C[C@H](O)C[C@H]1C(=O)NCc1ccc(-c2scnc2C)cc1)C(C)(C)SCCCCCCNC(=O)C[C@@H]1N=C(c2ccc(Cl)cc2)c2c(sc(C)c2C)-n2c(C)nnc21,"Bromodomain-containing protein 2, BD2 (BRD2, Homo sapiens, UniProt P25440)","binding, ITC",,"25 °C, compound in cell, protein in syringe",,ΔH,-8.2 ± 0.1 kcal/mol
O=C(Nc1cccc2c(=O)cc(-c3nnn[nH]3)oc12)c1ccc(OCCCCc2ccccc2)cc1,"Volume-regulated anion channel subunit LRRC8C, part LRRC8A IL1 chimera (LRRC8C, Homo sapiens, UniProt Q8TDW0, L136K)","ion current, inhibitor, whole-cell patch clamp",HCT LRRC8-/- cells,"0.1 µM, +100 mV",,inhibition,53.2% and 48.9% and 43.5% and 54.3% and 10.6%
O=C1CCC(N2Cc3cc(Nc4noc5ccccc45)ccc3C2=O)C(=O)N1 (stereo not shown),"Cereblon/Casein kinase I alpha (CSNK1A1/CRBN, Homo sapiens, UniProt P48729+Q96SW2)","degrader, live-cell HiBiT kinetic",HEK293 LgBiT,10 µM,,degradation rate constant,3.5 h⁻¹
Nc1ncnc2c1ncn2[C@@H]1O[C@H](COP(=O)(O)OP(=O)(O)O)[C@@H](O)[C@H]1O,"Creatine kinase U-type, mitochondrial (CKMT1A, Homo sapiens, UniProt P12532, E265Q)","substrate, Kinase-Glo luminescence",,"pH 7.0, reverse reaction, E227Q mutant, together with: second substrate in excess",,Km,13 ± 1 µM
CCC1(O)CCCN(C(=O)c2ccc(-c3ccc(F)c(NC(=O)CCl)c3)cc2)C1 (stereo not shown),"DNA dC->dU-editing enzyme APOBEC-3B, C-terminal domain (Homo sapiens, UniProt Q9UH17)","covalent modifier, intact protein mass spectrometry, measured: adduct +26104 Da",,"500 µM, 3 h, 20-fold molar excess",,protein adduct,25%
Nc1ncnc2c1ncn2[C@@H]1O[C@H](COP(=O)(O)OP(=O)(O)OP(=O)(O)O)[C@@H](O)[C@H]1O,"DNA-directed RNA polymerase subunit beta' / DNA-directed RNA polymerase subunit beta (rpoC/rpoB, Escherichia coli, UniProt P0A8T7+P0A8V2)","transcription elongation, rapid chemical quench-flow",,"slow complex fraction, i+2→i+1, together with: NTP 200 µM",,slow nucleotide addition rate constant,2.8 ± 1 s⁻¹
[O-][S+]1CCCCS1 (stereo not shown),"Superoxide dismutase [Cu-Zn] (SOD1, Homo sapiens, UniProt P00441, G94A)",LC-MS,brain homogenate,"1000 µM, 1 h, 37 °C",,SOD1 monomer fraction,0%
CCCC[C@@H]1NC(=O)[C@H](Cc2ccc(O)cc2)NC(=O)[C@@H]2CCCN2C(=O)[C@H](CC(=O)O)NC(=O)[C@H](C)NC(=O)[C@H](Cc2ccccc2)NC(=O)[C@@H]2CSCCC(=O)N3CN(CN(C3)C(=O)CCSC[C@@H](C(=O)N[C@@H](CNC(=O)CCOCCOCCOCCOCCOCCOCCOCCOCCOCCOCCOCCOCCn3cc(CCC(=O)NCCC(=O)N(C)CC(=O)N(C)CC(=O)N(C)CC(=O)N(C)CC(=O)N(C)CC(=O)N(C)CC(=O)N(C)CC(=O)N(C)CC(=O)N(C)CC(=O)N(C)CC(=O)N[C@H]4CSCCC(=O)N5CN6CN(C5)C(=O)CCSC[C@H](NC(=O)[C@@H](CC(=O)O)NC(=O)[C@H](Cc5cccc7ccccc57)NC(=O)[C@@H]5CCCN5C4=O)C(=O)N[C@@H](CCSC)C(=O)N[C@@H](CCCCNC(=N)N)C(=O)N[C@@H](CC(=O)O)C(=O)N[C@@H](Cc4c[nH]c5ccccc45)C(=O)N[C@@H](CO)C(=O)N[C@@H]([C@@H](C)O)C(=O)N4CCC[C@H]4C(=O)N4C[C@H](O)C[C@H]4C(=O)N[C@@H](Cc4c[nH]c5ccccc45)C(=O)N[C@H](C(N)=O)CSCCC6=O)nn3)C(N)=O)NC1=O)C(=O)CCSC[C@H](NC(=O)[C@H](C)NC(C)=O)C(=O)N[C@@H]([C@@H](C)CC)C(=O)N[C@@H](CCC(=O)O)C(=O)N[C@@H](CCC(=O)O)C(=O)NCC(=O)N[C@@H](CCC(N)=O)C(=O)N[C@@H](Cc1ccc(O)cc1)C(=O)N2,"Tumor necrosis factor receptor superfamily member 9/Nectin-4 (Homo sapiens, UniProt Q07011+Q96NY8)","reporter gene, agonist",HT-1376 coculture with reporter cells,,relative to: background,Emax,25 fold
Cc1cc2nc3[nH]c(=O)[nH]c(=O)c3nc2cc1C,"T1, riboswitch RNA yjdF aptamer (Bacillus subtilis)",fluorescence titration,,together with: 380 nM lumichrome,,Kd,800 nM
O=c1nc(SCc2cc(F)cc(C(F)(F)F)c2)nc(SCc2ccc3sccc3c2)[nH]1,"DNA topoisomerase 2-alpha (TOP2A, Homo sapiens, UniProt P11388)",ATPase activity,,"7.8 µM, together with: ATP 0.05 mM",,ATP hydrolysis rate,0.456 µM/min and 0.467 µM/min

# A few entries again:
SMILES,target,test,test system,conditions,scale,quantity,result
CCC1(O)CCCN(C(=O)c2ccc(-c3ccc(F)c(NC(=O)CCl)c3)cc2)C1 (stereo not shown),"DNA dC->dU-editing enzyme APOBEC-3B, C-terminal domain (Homo sapiens, UniProt Q9UH17)","covalent modifier, intact protein mass spectrometry, measured: adduct +26104 Da",,"500 µM, 3 h, 20-fold molar excess",,protein adduct,25%
Nc1ncnc2c1ncn2[C@@H]1O[C@H](COP(=O)(O)OP(=O)(O)OP(=O)(O)O)[C@@H](O)[C@H]1O,"DNA-directed RNA polymerase subunit beta' / DNA-directed RNA polymerase subunit beta (rpoC/rpoB, Escherichia coli, UniProt P0A8T7+P0A8V2)","transcription elongation, rapid chemical quench-flow",,"slow complex fraction, i+2→i+1, together with: NTP 200 µM",,slow nucleotide addition rate constant,2.8 ± 1 s⁻¹
[O-][S+]1CCCCS1 (stereo not shown),"Superoxide dismutase [Cu-Zn] (SOD1, Homo sapiens, UniProt P00441, G94A)",LC-MS,brain homogenate,"1000 µM, 1 h, 37 °C",,SOD1 monomer fraction,0%
